Measured values pooled from the literature.
Each line is one published result; not all experiments were run side by side.
Target: Focal adhesion kinase 1 (PTK2, Homo sapiens, UniProt Q05397)
Sequence of UniProt Q05397 (whole entry, looked up): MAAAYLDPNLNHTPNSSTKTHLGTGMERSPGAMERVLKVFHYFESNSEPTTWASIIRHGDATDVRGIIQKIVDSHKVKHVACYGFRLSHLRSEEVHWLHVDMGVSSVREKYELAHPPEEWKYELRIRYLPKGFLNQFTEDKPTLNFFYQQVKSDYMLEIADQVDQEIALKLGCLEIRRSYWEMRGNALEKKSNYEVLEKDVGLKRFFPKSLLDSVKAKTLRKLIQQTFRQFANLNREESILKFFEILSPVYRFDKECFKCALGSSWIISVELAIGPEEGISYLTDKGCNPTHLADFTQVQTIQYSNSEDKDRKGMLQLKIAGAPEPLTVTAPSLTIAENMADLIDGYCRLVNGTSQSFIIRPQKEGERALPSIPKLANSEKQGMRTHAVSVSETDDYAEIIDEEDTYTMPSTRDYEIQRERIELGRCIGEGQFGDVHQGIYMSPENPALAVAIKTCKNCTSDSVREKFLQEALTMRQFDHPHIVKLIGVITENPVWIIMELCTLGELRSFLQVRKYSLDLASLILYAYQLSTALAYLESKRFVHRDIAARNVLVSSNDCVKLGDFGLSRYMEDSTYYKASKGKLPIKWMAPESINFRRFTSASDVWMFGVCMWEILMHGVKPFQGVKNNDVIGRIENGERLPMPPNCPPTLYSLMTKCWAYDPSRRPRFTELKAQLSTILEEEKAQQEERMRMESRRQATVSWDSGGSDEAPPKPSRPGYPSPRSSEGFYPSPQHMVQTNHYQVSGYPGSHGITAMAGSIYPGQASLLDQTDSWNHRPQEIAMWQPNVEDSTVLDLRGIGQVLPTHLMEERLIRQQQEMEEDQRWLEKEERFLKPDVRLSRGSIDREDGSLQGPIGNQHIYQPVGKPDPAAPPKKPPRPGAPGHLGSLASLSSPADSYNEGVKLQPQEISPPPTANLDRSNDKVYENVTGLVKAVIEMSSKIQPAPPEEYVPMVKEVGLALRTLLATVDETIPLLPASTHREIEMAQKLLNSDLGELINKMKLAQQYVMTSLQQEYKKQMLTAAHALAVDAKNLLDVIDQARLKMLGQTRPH

CN(C)[C@H]1C[C@@]23CC[C@@]4(O2)C(=CC[C@]2(C)[C@@H](c5ccc6ccncc6c5)CC[C@H]24)C=C3[C@@H](O)[C@@H]1O  inhibition (ATP probe labelling, inhibitor, KiNativ profiling; 1 µM): 4.6%
Nc1ccc(/C=C/C(=O)N2CCc3c(oc4c(-c5ccc(F)cc5)cc(-c5ccc(C(=O)N6CCC(F)(F)CC6)cn5)cc34)C2)cn1  remaining binding (binding, competition with immobilised ligand; 1 µM): 100%
CCOC(=O)[C@@H]1Cc2c(cc([N+](=O)[O-])cc2[N+](=O)[O-])[C@H](O)[C@]12C(=O)Nc1ccc(Br)cc12  remaining binding (binding, competition with immobilised ligand; 0.1 µM): 63%
CC(C)[C@H]1NC(=O)C[C@H]2/C=C/CCSSC[C@@H](NC1=O)C(=O)N[C@H](Cc1cccc3ccccc13)C(=O)NCC(=O)O2  inhibition (enzyme activity, inhibitor; 10 µM): 8%
C[C@H](NCc1ccc(-c2ccc(C(F)(F)F)cc2)cc1)C(N)=O  inhibition (cell-free assay, competition with immobilised ligand; 1 µM): 4%
O=C1NC(=O)c2c1c1cc(F)c[n+]3c1c1c2c2cc(O)ccc2[n]1[Ru-4]312([N]=C=S)[S+]3CC[S+]1CC[S+]2CC3 (centres unmarked)  remaining activity (enzyme activity; 100 nM, human enzyme, with: 10 µM ATP; relative to: untreated): 100%
C=CC(=O)Nc1cc(-c2nn(C3CCC(N4CCN(C(C)=O)CC4)CC3)c3ncnc(N)c23)ccc1Oc1ccccc1 (centres unmarked)  inhibition (inhibitor, KiNativ profiling; biochemical; 2 µM): 12.1%
CS(C)(=O)=Nc1ccc(-c2ccc(-c3nc4cc(O[C@@H]5CO[C@H]6[C@@H]5OC[C@H]6O)[nH]c4cc3F)cc2)cc1  inhibition (enzyme activity, inhibitor; 10 µM): 10%

Some of these lines once more:
CN(C)[C@H]1C[C@@]23CC[C@@]4(O2)C(=CC[C@]2(C)[C@@H](c5ccc6ccncc6c5)CC[C@H]24)C=C3[C@@H](O)[C@@H]1O  inhibition (ATP probe labelling, inhibitor, KiNativ profiling; 1 µM): 4.6%
